Published values from different studies.
Each line is one published result; not all experiments were run side by side. “And” joins repeats or separate records; there may be more than shown. Numbers after ± are the reported error.
rep papain-like protease: Replicase polyprotein 1ab, papain-like protease (rep, Porcine epidemic diarrhea virus, UniProt P0C6Y4)
ADRA2B: Alpha-2B adrenergic receptor (ADRA2B, Homo sapiens, UniProt P18089)
Sequence of UniProt P18089 (whole entry, looked up): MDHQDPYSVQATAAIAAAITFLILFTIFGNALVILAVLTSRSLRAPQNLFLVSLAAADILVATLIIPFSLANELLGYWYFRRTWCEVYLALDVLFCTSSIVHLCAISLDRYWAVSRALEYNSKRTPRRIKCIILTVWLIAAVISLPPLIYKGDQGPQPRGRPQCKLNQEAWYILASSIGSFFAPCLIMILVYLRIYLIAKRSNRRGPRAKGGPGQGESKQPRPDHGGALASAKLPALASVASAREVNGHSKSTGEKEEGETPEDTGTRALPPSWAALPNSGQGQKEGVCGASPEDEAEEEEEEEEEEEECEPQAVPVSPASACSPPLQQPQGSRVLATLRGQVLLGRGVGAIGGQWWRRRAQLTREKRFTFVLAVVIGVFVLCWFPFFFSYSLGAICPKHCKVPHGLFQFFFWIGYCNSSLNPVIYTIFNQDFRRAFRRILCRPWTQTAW
rep main protease: Replicase polyprotein 1ab, main protease (rep, Porcine epidemic diarrhea virus, UniProt P0C6Y4)
HDAC6 ZnF-UBD domain: Protein deacetylase HDAC6, ZnF-UBD domain (HDAC6, Homo sapiens, UniProt Q9UBN7)
Sequence of UniProt Q9UBN7 (whole entry, looked up): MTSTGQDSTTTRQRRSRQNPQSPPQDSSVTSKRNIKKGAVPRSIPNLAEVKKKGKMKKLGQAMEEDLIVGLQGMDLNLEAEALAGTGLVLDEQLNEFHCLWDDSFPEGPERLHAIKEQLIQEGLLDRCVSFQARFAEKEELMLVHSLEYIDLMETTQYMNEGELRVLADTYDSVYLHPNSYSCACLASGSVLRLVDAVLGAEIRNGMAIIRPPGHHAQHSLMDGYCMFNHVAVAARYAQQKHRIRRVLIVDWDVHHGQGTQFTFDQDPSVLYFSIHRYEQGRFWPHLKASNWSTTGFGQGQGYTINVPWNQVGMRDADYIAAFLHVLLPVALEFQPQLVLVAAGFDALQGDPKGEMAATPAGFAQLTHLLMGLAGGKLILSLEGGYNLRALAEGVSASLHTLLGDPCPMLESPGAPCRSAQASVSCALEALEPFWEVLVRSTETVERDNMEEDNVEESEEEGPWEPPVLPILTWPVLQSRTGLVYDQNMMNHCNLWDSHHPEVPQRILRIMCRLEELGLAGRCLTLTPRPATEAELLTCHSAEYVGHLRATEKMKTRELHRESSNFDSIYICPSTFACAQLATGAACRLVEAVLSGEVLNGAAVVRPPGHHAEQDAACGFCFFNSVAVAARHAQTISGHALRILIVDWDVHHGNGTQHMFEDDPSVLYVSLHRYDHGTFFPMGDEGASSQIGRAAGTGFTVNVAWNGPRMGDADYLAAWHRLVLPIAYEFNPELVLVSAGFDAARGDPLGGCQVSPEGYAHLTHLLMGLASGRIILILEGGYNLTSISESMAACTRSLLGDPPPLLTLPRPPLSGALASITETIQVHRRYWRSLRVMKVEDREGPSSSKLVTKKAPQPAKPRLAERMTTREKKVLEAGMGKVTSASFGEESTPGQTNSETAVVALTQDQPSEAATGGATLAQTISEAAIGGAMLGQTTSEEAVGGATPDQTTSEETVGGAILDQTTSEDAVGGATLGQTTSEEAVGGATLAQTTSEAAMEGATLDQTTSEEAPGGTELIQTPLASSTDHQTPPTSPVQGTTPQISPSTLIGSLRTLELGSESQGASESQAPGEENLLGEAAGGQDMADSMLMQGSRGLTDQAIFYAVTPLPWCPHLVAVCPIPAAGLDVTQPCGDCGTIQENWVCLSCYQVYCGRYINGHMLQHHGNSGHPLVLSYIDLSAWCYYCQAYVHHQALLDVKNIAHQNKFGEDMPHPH
EP300: Histone acetyltransferase p300 (EP300, Homo sapiens, UniProt Q09472)
Sequence of UniProt Q09472 (whole entry, looked up): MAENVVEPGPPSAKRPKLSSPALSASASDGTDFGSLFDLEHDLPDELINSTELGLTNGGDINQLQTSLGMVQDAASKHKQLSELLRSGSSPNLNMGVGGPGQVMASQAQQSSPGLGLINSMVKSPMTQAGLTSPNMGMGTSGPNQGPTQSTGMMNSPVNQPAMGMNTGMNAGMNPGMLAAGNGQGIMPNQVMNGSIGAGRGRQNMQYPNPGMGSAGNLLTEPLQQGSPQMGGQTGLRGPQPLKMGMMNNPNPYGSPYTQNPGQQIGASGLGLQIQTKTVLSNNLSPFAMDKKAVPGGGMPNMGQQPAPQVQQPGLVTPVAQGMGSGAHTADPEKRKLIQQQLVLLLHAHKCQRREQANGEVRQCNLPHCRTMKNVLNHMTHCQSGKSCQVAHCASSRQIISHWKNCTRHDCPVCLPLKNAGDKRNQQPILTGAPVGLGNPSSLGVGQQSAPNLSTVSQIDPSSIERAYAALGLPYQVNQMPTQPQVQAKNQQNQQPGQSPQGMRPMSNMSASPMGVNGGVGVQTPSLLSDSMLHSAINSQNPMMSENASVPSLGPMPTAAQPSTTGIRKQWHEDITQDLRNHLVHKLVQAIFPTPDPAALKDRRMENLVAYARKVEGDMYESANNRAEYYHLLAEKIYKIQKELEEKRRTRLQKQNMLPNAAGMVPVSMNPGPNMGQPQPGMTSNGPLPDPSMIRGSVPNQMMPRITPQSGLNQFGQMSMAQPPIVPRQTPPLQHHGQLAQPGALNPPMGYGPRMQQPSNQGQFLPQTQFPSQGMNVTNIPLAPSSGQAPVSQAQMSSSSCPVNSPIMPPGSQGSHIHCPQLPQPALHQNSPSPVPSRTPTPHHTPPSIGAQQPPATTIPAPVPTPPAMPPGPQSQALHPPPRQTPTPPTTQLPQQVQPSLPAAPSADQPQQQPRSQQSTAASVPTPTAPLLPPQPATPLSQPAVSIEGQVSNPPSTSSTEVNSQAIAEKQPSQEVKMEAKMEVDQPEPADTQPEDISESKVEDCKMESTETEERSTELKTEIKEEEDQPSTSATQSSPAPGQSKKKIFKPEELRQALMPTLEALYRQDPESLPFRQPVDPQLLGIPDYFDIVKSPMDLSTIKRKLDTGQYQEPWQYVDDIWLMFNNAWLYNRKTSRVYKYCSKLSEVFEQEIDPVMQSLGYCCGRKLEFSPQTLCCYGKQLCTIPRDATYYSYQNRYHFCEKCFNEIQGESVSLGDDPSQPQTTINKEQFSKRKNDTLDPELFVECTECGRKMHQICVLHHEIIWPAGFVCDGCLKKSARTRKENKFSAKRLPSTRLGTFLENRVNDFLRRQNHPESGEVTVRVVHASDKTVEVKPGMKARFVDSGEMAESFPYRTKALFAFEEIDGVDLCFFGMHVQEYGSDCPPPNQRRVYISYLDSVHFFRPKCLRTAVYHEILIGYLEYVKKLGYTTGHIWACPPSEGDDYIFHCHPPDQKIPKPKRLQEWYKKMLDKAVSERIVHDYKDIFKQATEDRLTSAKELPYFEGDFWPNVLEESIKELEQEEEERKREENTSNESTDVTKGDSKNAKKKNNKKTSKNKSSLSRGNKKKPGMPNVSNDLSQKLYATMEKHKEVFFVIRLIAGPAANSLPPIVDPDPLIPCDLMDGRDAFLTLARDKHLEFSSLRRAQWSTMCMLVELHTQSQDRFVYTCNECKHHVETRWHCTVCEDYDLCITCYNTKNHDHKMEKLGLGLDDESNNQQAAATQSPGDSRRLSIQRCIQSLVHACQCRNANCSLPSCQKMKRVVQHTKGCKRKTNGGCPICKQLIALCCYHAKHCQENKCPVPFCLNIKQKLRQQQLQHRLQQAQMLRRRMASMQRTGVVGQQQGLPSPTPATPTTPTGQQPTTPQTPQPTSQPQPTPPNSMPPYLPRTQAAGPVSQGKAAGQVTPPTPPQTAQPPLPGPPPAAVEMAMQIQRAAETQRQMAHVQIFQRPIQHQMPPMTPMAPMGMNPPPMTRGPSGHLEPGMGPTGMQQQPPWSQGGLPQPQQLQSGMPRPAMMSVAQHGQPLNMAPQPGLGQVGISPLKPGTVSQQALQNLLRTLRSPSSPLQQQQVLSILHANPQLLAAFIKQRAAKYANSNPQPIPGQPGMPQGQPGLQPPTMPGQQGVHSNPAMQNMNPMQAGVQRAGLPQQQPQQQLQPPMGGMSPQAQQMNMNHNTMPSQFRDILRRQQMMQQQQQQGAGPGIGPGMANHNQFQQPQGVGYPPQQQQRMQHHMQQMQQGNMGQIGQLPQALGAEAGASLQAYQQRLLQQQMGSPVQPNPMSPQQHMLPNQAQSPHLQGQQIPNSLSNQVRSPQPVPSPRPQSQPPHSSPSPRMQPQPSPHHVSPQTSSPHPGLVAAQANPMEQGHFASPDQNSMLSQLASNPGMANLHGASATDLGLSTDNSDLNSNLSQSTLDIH
STK16: Serine/threonine-protein kinase 16 (STK16, Homo sapiens, UniProt O75716)
Sequence of UniProt Q8IWT6 (whole entry, unmodified, looked up): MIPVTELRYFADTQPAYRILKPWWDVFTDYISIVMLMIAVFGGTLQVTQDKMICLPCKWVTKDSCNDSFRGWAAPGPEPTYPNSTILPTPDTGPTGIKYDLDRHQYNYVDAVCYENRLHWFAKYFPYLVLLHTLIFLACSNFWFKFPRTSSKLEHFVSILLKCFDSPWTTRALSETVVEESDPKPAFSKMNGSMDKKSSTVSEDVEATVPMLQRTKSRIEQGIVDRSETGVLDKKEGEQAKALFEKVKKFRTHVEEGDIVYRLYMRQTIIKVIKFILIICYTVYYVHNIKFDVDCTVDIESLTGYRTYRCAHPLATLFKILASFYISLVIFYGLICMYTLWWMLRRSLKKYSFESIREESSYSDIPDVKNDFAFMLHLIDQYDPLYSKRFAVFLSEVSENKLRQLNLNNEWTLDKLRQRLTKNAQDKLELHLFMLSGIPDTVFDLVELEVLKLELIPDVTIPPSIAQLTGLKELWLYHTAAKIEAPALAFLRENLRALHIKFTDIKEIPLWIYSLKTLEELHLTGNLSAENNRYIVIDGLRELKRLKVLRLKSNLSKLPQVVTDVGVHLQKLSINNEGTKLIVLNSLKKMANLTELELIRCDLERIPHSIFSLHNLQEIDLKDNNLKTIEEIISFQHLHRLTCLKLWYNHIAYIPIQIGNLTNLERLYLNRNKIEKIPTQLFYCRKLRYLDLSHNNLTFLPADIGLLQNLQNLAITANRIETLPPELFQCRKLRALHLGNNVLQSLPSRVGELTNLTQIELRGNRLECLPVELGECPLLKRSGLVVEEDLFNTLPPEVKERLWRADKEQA

COc1ccc(C(=O)NCc2ccc(C)c(C)c2)cc1  inhibition (rep papain-like protease; enzyme activity, inhibitor, FRET; 10 µM): < 0%
CCN1CCN(Cc2ccc(NC(=O)c3ccc(C)c(Oc4ccnc5[nH]ccc45)c3)cc2C(F)(F)F)CC1  inhibition (Serine/threonine-protein kinase SMG1 (SMG1, Homo sapiens, UniProt Q96Q15); A-375; concentration not given): -23.4%
CCS(=O)(=O)c1nc(S(=O)(=O)c2ccccc2Cl)c(N2CCN(C)C(=O)[C@H]2C)s1  inhibition (ADRA2B; 10 µM): 10.6%
COc1cc(CNC(=O)c2ccc3ccccc3c2)cc(Br)c1OC  inhibition (rep main protease; enzyme activity, inhibitor, FRET; 10 µM): < 0%
COc1cc(C(=O)NS(=O)(=O)c2ccccc2C)ccc1Cc1cn(C)c2ccc(NC(=O)OC3CCCC3)cc12  inhibition (LRRC8A/LRRC8C (Homo sapiens, UniProt Q8IWT6+Q8TDW0, Y124F/Y126F); ion current, inhibitor, whole-cell patch clamp; HCT116 LRRC8 knockout, transfected; 100 µM, +100 mV, mutant Y124F/Y126F): 85.5%
COc1ccc(F)cc1C(=O)NCc1ccc(-c2nn([C@@H](C)C(F)(F)F)c(N)c2C(N)=O)cc1  inhibition (Serine/threonine-protein kinase ULK3 (ULK3, Homo sapiens, UniProt Q6PHR2); probe binding, competitive chemoproteomics; human PBMCs; 1 µM): 15.2%
NC/C(=C\F)COc1cccc(Cn2c(=S)[nH]c(=O)c3[nH]cnc32)c1  inhibition (hamster KATP channel; radioligand binding; 10 µM): < 50%
NCc1cc2c(cc1F)C(=O)N(C1CCC(=O)NC1=O)C2 (centres unmarked)  concentration (Amine oxidase [copper-containing] 3 (Mus musculus, UniProt O70423); substrate, LC-MS/MS; recombinant mouse enzyme; 10 µM, 0 h, pH 7.4): 12.7 µM
CC(C)[C@H](NC(=O)[C@H](Cc1ccc(O)cc1)NC(=O)[C@H](Cc1ccc(O)cc1)NC(=O)[C@@H]1CCCN1C(=O)[C@H](CCC(=O)O)NC(=O)[C@H](CCC(=O)O)NC(=O)[C@H](Cc1c[nH]c2ccccc12)NC(=O)[C@@H]1CCCN1C(=O)[C@@H](NC(=O)[C@H](CCC(N)=O)NC(=O)c1ccc2c(c1)C(=O)OC21c2ccc(O)cc2Oc2cc(O)ccc21)C(C)C)C(=O)N[C@H](C(=O)N[C@@H](CCCCN)C(=O)N[C@@H](CCCCN)C(=O)N[C@@H](CO)C(=O)N[C@@H](CO)C(=O)NCC(=O)NCC(N)=O)C(C)C  plasma concentration (human, plasma; intravenous infusion, 200 mg, 0.5 h): 8760 ng/mL
CC(C)C[C@H](NC(=O)C[C@H](O)[C@H](CC(C)C)NC(=O)[C@H](Cc1c[nH]cn1)NC(=O)CNC(=O)[C@@H](NC(=O)[C@H](C)NC(=O)[C@H](Cc1c[nH]c2ccccc12)NC(=O)[C@H](CCC(N)=O)NC(=O)[C@@H](Cc1ccccc1)NC(=O)COCCOCCNC(=O)CCC(C(=O)O)N1CCN(CC(=O)O)CCN(CC(=O)O)CCN(CC(=O)O)CC1)C(C)C)C(N)=O (some centres unmarked) [lutetium-177 labelled]  tissue uptake (female BALB/c nu/nu mice, lung; intravenous, 100 pmol, 24 h, with: PA 300 µg): 0.05 ± 0.02 %ID/g
COc1ccc(S(=O)(=O)ON=C2C=C(C)C(=O)C(C)=C2)cc1  inhibition (Protein deacetylase HDAC6 (HDAC6, Homo sapiens, UniProt Q9UBN7); enzyme activity, inhibitor; concentration not given): no inhibition
CC/C(=N\NC(=O)NCc1cccc(O)c1)c1ccc(O)c(C)c1O  inhibition (Serine/threonine-protein kinase B-raf (BRAF, Homo sapiens, UniProt P15056); kinase activity; 0.1 µM): 5%
O=C(Nc1cccc2c(=O)cc(-c3nnn[nH]3)oc12)c1ccc(OCCCCc2ccccc2)cc1  inhibition (LRRC8A/LRRC8C (Homo sapiens, UniProt Q8IWT6+Q8TDW0, L134K/L136K); ion current, whole-cell patch clamp; LRRC8-/- HCT cells; 0.3 µM, L134K/L136K mutant, +100 mV): 23% and 25.1% and 21.5% and 26.9% and 10.1% and -1.17%
O=C(NO)c1ccc(CN2CCCCc3ccccc32)c(F)c1  inhibition (Alpha-1D adrenergic receptor (ADRA1D, Homo sapiens, UniProt P25100); radioligand binding, PDSP radioligand binding; 10 µM): -8.56%
CCc1oc2ccccc2c1C(=O)c1cc(Br)c(O)c(Br)c1  inhibition (Solute carrier family 22 member 12 (SLC22A12, Homo sapiens, UniProt Q96S37, S238A); urate uptake; HEK293T; 0.5 µM, 10 min, 37 °C, with: 200 µM [14C]urate): 50.7% and 48.6% and 44% and 50.1% and 44.6% and 47.4%
COc1cc2oc(=O)cc(C)c2cc1CCC(=O)O  Kd (HDAC6 ZnF-UBD domain): 343 µM
Ic1cccc2cnccc12  inhibition (imidazoline I2 receptor, central (rat); radioligand binding, inhibitor; 10 µM): 5%
N[C@H]1[C@H](O[C@H]2[C@H](O)[C@@H](N)[C@H](O[C@H]3[C@H](O)[C@@H](N)[C@H](O[C@H]4[C@H](O)[C@@H](N)C(O)O[C@@H]4CO)O[C@@H]3CO)O[C@@H]2CO)O[C@H](CO)[C@@H](O)[C@@H]1O (some centres unmarked)  competition of LCO binding (radioligand binding, competition binding; membrane fractions; 2 µM, with: radiolabelled LCO-V(C18:1,NMe)): 0% and 3.4%
COc1cc(-c2cc(C(C)=O)n3ccccc23)c(OC)cc1Cn1ccnc1  inhibition (EP300; 1 µM): 41%
OO  inhibition (Histone acetyltransferase p300, BHC core (EP300, Homo sapiens, UniProt Q09472); enzyme activity; 1 mM, with: p300 BHC, without DTT): 54 ± 10%
CC[C@@H]1[C@H](F)C(=O)N[C@@H]1COc1nccc2cc(C(N)=O)c(OC)cc12  inhibition (Serine/threonine-protein kinase 3 (STK3, Homo sapiens, UniProt Q13188); ATP-site probe binding, ActivX profiling, measured: MST2; THP-1 cell lysate; 0.01 mM, Lys1 site): -6.8%
O=C(C[C@@H](C(F)F)n1ccc(F)n1)N1CCC(O)(Cn2cnc3c(cnn3-c3ccc(F)cc3)c2=O)CC1  inhibition (Ubiquitin carboxyl-terminal hydrolase 7 (USP7, Homo sapiens, UniProt Q93009, V517F); enzyme activity, inhibitor; 0.0005 µM): 12.7% and 10.9%
N[C@H]1[C@H](O[C@H]2[C@H](O)[C@@H](N)[C@H](O[C@H]3[C@H](O)[C@@H](N)[C@H](O[C@H]4[C@H](O)[C@@H](N)[C@H](O[C@H]5[C@H](O)[C@@H](N)C(O)O[C@@H]5CO)O[C@@H]4CO)O[C@@H]3CO)O[C@@H]2CO)O[C@H](CO)[C@@H](O)[C@@H]1O (some centres unmarked)  competition of LCO binding (radioligand binding, competition binding; membrane fractions; 2 µM, with: radiolabelled LCO-V(C18:1,NMe)): 11% and 12% and 10%
O=C(CSc1nc2ncc(C3CC3)nc2c(=O)n1CCc1ccccc1)Nc1nccs1  inhibition (Phosphatidylinositol 4-phosphate 3-kinase C2 domain-containing subunit alpha (Pik3c2a, Mus musculus, UniProt Q61194); enzyme activity, inhibitor; concentration not given, with: ATP 10 µM): inactive
COc1c(C#N)ccnc1N1C2CCC1CN(C(=O)c1cccnc1-n1cccn1)C2  inhibition (voltage-gated potassium channel; binding; 10 µM): -10.9%
COc1cc(-c2cc(C(C)=O)n3ccccc23)cc(OC)c1Cn1ccnc1  inhibition (EP300; 1 µM): 25.7%
CN1CCN(c2cc(-c3ccncc3)c(-c3ccc4ccccc4c3)nn2)CC1  inhibition (C-X-C chemokine receptor type 5 (CXCR5, Homo sapiens, UniProt P32302); antagonist, FLIPR; 10 µM): 3.5%
Cc1cc2c(cc1N1C(=O)c3cccc4c(CCCO)ccc(c34)C1=O)n(C)c(=O)n2C (racemic)  inhibition (Bromodomain and WD repeat-containing protein 1, bromodomain 2 (BRWD1, Homo sapiens, UniProt Q9NSI6); binding, BROMOscan binding; 1000 nM): 50%
Cc1nn(-c2nc3c(F)cc(F)cc3s2)c(O)c1C(c1ccc(C(F)(F)F)cc1)c1c(C)nn(-c2nc3c(F)cc(F)cc3s2)c1O  inhibition (Cyclic GMP-AMP synthase, catalytic domain; with DNA (CGAS, Homo sapiens, UniProt Q8N884); cGAS phase separation, inhibitor; 12.5 µM): 79.6%
Cc1ccc(CNC(=O)c2ccccc2)cc1C  inhibition (rep main protease; enzyme activity, inhibitor, FRET; 10 µM): < 0%
O=C(O)CNc1ccc2nncn2n1  Kd (HDAC6 ZnF-UBD domain): 869 µM
OC(CCN1CCCCC1)(c1ccccc1)C1CC2C=CC1C2 (centres unmarked)  change in EEG Beta2-power Pz-O2 (resting-state EEG; healthy elderly humans; oral, 4 mg, eyes open, LS mean; baseline: baseline): -0.1%
Cc1cc(-c2ccnc3[nH]cc(F)c23)cc(F)c1[C@@]1(O)[C@H](C)CN(C2CCS(=O)(=O)CC2)C[C@@H]1C  inhibition (STK16; ATP probe binding, KiNativ, measured: Lys2 site; HEK293T cell lysate; 0.1 µM): -29.7%
NC(=O)c1cnc2[nH]ccc2c1N[C@@H]1[C@@H]2CC3C[C@H]1C[C@@](O)(C3)C2  total naive T-cell change (flow cytometry; Japanese healthy men, blood; oral, 100 mg twice daily, 72 h after day 7 dose; baseline: baseline): -7.5%
OCCCN1CC[C@@H]2C[C@H]1c1cc(-c3ccc(C(F)(F)F)cc3)ccc12  inhibition (ADRA2B; radioligand binding, PDSP competition binding; 10 µM): < 50%
Cc1cc(Nc2ncnc3ccc(NC4=NC(C)(C)CO4)cc23)ccc1Oc1ccn2ncnc2c1  Cmax, mean (Cytochrome P450 3A4 (CYP3A4, Homo sapiens, UniProt P08684); human, plasma; oral, 300 mg, day 1, single dose alone): 511 ng/mL
Cc1cc(-c2ccnc3[nH]cc(F)c23)cc(F)c1[C@@]1(O)[C@H](C)CN(C(=O)CN)C[C@@H]1C  inhibition (STK16; ATP probe binding, KiNativ, measured: Lys2 site; HEK293T cell lysate; 0.1 µM): 17.1%
CC(C)C[C@H](NC(=O)C[C@H](O)[C@H](CC(C)C)NC(=O)[C@H](Cc1c[nH]cn1)NC(=O)CNC(=O)[C@@H](NC(=O)[C@H](C)NC(=O)[C@H](Cc1c[nH]c2ccccc12)NC(=O)[C@H](CCC(N)=O)NC(=O)[C@@H](Cc1ccccc1)NC(=O)COCCOCCNC(=O)CN1CCN(CC(=O)O)CCN(CC(=O)O)CCN(CC(=O)O)CC1)C(C)C)C(N)=O [lutetium-177 labelled]  tissue uptake (female BALB/c nu/nu mice, bone; intravenous, 50 pmol, 1 h): 0.12 ± 0.01 %ID/g
COc1cc(CNC(=O)c2ccncc2Cl)cc(Br)c1OC  inhibition (rep main protease; enzyme activity, inhibitor, FRET; 10 µM): < 0%
Cn1cc(-c2ccc(-c3cncc(Cl)c3N3CCC4(CCNC4=O)CC3)cc2)cn1  log2 fold change (COLO 205; gene expression, microarray, measured: OXTR mRNA; concentration not given, 6 h; baseline: untreated cells): -1.43
COc1cc(CNC(=O)c2cccc(C#N)c2)cc(Br)c1OC  inhibition (rep main protease; enzyme activity, FRET; concentration not given): inactive
COc1cc2ncnc(Nc3ccc(Oc4ccccc4)cc3C)c2cc1OC  inhibition (5'-AMP-activated protein kinase catalytic subunit alpha-2, with beta1 gamma1 (PRKAA2, Homo sapiens, UniProt P54646); kinase activity, inhibitor; 1 µM): 4%
COc1cc(CNC(=O)c2cccs2)cc(Br)c1OC  inhibition (rep papain-like protease; enzyme activity, inhibitor, FRET; 10 µM): < 0%
COc1ccc(C(=O)Nc2ccc(N3CCC4(CC3)CCN(c3ccccn3)CC4)cc2)cc1  inhibition (Alpha-synuclein, fibrils (SNCA, Homo sapiens, UniProt P37840); radioligand binding; 1 µM, 50 nM protein, with: [3H]BF2846 4 nM): 65%

Excerpt of the above:
Ic1cccc2cnccc12  inhibition (imidazoline I2 receptor, central (rat); radioligand binding, inhibitor; 10 µM): 5%
N[C@H]1[C@H](O[C@H]2[C@H](O)[C@@H](N)[C@H](O[C@H]3[C@H](O)[C@@H](N)[C@H](O[C@H]4[C@H](O)[C@@H](N)C(O)O[C@@H]4CO)O[C@@H]3CO)O[C@@H]2CO)O[C@H](CO)[C@@H](O)[C@@H]1O (some centres unmarked)  competition of LCO binding (radioligand binding, competition binding; membrane fractions; 2 µM, with: radiolabelled LCO-V(C18:1,NMe)): 0% and 3.4%
